Published values pooled from the literature.
Each numbered part is a random draw from the data of one study; scales do not carry over between parts.

Set 1
Target: RNA binding protein fox-1 homolog 2, RRM domain, GST-SBP tag (RBFOX2, Homo sapiens, UniProt O43251-10, residues 100-194)
Technique: RNA Bind-n-Seq
Form: RNA
Matrix: in vitro
Tested at: 365 nM
Setting: natural RNA segment, single round, ends assumed
Baseline: no-protein control
Reading: higher = stronger binding
All sequences stand within: GGGAGUUCUACAGUCCGACGAUC … UGGAAUUCUCGGGUGCCAA
Residues (chain): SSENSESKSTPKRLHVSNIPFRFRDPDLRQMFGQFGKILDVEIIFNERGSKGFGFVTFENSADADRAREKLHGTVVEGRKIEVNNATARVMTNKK
`GCAUGUUUUAGAAGCUUGCCUCACAGACUUCCAUGCCUCUCCAUUCAGCCGAUGACUUCAGGGUGUCAAACUGUUUUAAUUUUUCAAACAAAUGGAACAGAAGCCAUUGU` — result for “RBNS enrichment (R)”: 0.83.
Under “RBNS enrichment (R)”, `AGAAAUACUGCUCUGAAUAUUUUGUAAUAAAGGUCUUUGCACAUGUGACCACAUACGUGUUAGGAGGCUGCAUGCUCUGGAAGCCUGGACUCUAAGCUGGAGCUCUUGGA` is recorded as 5.72.
`CCUCAGUGUCCUCACCUGUCAAGUGGGCAAGCCAUGCUGAUCCGCAGGGUAAGUUACUGGGAGUUUGCAAGACGGAGACAAGAUCCCUGGCUCUGCCGUGCUAAUCUUCA`: “RBNS enrichment (R)” 0.253.
Under “RBNS enrichment (R)”, `AGGUUCCGGACACAGGCUUCUGGGGGAAGGGUCUCCCUUGGCCAUCACGGGAAUGGAGUCCAUGCUAGAAAGAGCUCAGUGUUGGGCUGGGUUUGCCAGUAGAACACUGC` is recorded as 0.587.
Under “RBNS enrichment (R)”, `ACUCGACCUCUCCCUAAAAAGAUGUUGCAACCCAGUUUCUCUGAAUUCCACCACAAAAAGAGACCCUGAAUAAGAAGAGCAGUUUUCCUGUGCAUAUAGAGGGUGUGUCA` is recorded as 0.786.
Under “RBNS enrichment (R)”, `GCCUCCUACAGCAAGGACAGGAAUCAGACCGACUCCCUAGCUUACGCUCUGGGAGGGGUACUGGGUACCCCACCCUUCACUGAGGCCUUUGGAUUUGUCUCAGUGCCUUA` is recorded as 0.217.
Under “RBNS enrichment (R)”, `UACCAGUCAGAGGUCAGGACUCCAUGAGUCCAGCUGCCACAAAGGGUUCAGCUUGGAGGUGACACCUCUUUGGUCUACAUUUGUACAAUGGAUGCAUCAAGUUUCUAAAU` is recorded as 0.258.
For `AGAAUAAGUCACAUUGGUUCCAUGGCCACAAACCAUUCAGAUCAGCCACUUGCUGACCCUGGUUCUUAAGGACACAUGACAUUAGUCCAAUCUUUCAAAAUCUUGUCUUA`, “RBNS enrichment (R)” read 0.26.

Set 2
Target: Sal-like protein 4, full length isoform B (SALL4, Homo sapiens, UniProt Q9UJQ4-2, residues 1-616)
Technique: universal PBM
Form: double-stranded DNA, one strand shown
Matrix: in vitro
Tested at: not given
Setting: 8-mer, flanks averaged, mean of replicates
Reading: higher = stronger binding
`ACTTTAAA` has an E-score of 0.252.
`CTCCAACC` gave an E-score of -0.0816.
`TCGATAGA` gave an E-score of 0.172.
`CCGGTGGC` gave an E-score of -0.375.
With `GGTGAGCA` the E-score was -0.199.

Set 3
Target: Interferon regulatory factor 7, full length, phosphomimetic (IRF7, Homo sapiens, UniProt Q92985, residues 1-503, S471D/S472D/S475D/S476D/S477D/S483D/S484D/S487D)
Technique: protein-binding microarray
Form: double-stranded DNA, one strand shown
Matrix: in vitro
Tested at: 2200 nM top
Setting: 60-bp whole probe
With: salmon DNA 0.4 mg/ml
Baseline: random background probes
Reading: higher = stronger binding
All sequences stand within: GCCTAGCAC … GTCTTGATTCGCTTGACGCTGCTG
Target sequence (chain): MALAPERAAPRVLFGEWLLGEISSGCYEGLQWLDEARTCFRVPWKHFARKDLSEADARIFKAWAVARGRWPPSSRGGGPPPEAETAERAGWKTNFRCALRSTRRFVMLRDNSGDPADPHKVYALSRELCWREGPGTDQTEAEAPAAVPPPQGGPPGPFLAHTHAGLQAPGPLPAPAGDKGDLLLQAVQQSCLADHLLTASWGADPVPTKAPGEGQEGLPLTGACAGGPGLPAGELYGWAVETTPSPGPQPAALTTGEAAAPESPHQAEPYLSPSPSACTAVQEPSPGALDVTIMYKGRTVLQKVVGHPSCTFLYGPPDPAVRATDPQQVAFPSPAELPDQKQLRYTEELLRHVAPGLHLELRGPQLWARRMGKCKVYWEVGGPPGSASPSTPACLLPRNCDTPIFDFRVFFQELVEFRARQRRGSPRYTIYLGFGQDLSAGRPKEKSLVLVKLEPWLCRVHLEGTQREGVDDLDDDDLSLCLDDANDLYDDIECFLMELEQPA
`GACGGCCTGCTACTGCTGACGTGCTAG` — result for “fitted relative affinity”: -0.447 z-score.
`TCATTTCTCTGGTTCTTACTGTGCTAG` — result for “fitted relative affinity”: 2.71 z-score.
For `GACGGACTGATACTGCTGACGTGCTAG`, “fitted relative affinity” read -0.0281 z-score.
For `TTAGGACAGGGGACTGGGTTAGTGCTA`, “fitted relative affinity” read -1.05 z-score.
`TCACCTTTATGTCCTGTACTGTGCTAG`: “fitted relative affinity” 2.12 z-score.
For `AGATTTTTTTTCCTAATTGAGTGCTAG`, “fitted relative affinity” read 0.546 z-score.
For `CTTGCTTTTTAGATCGTCCCGTGCTAG`, “fitted relative affinity” read 1.44 z-score.
`GACGGACTGCTTTTCCTGACGTGCTAG`: “fitted relative affinity” 0.617 z-score.
`TTAAATTCCAGTTTCGATTAGTGCTAG`: “fitted relative affinity” 6.34 z-score.
`GACGGTTTCCTGCTCCTGACGTGCTAG` — result for “fitted relative affinity”: 2.29 z-score.

Other studies, line by line
`PhoQ, residues 284 288 289 292 302 303 ALVSVA` gave a fold induction of 5.33 (PhoP, residues 12 14 15 18 19 NHFIF (Escherichia coli, UniProt P23836); Sort-seq, measured: YFP reporter; E. coli; PhoQ-PhoP variant library, with: 10 µM Mg2+; baseline: high Mg2+ state, higher = stronger signaling).

Some of these lines once more (set 3):
`GACGGTTTCCTGCTCCTGACGTGCTAG` — result for “fitted relative affinity”: 2.29 z-score.
`TCATTTCTCTGGTTCTTACTGTGCTAG` — result for “fitted relative affinity”: 2.71 z-score.
